Published values collected from several papers.
Compare with care: the assays were run in different laboratories.
Organism: Candida albicans

SMILES | assay | system | setting | MIC
COc1ccc(/N=N/C(=S)N2CCOCC2)cc1 | microbial growth, broth dilution | ATCC10231 | 24 h | > 50 µM
N=C(N)NCCC[C@@H]1NC(=O)[C@H](CCCNC(=N)N)NC(=O)[C@H](CCCNC(=N)N)NC(=O)[C@@H](CCCNC(=N)N)NC(=O)[C@H](Cc2ccc3ccccc3c2)NC(=O)[C@H](Cc2ccc3ccccc3c2)NC(=O)[C@H](Cc2ccc3ccccc3c2)NC1=O | – | SC5314 | – | 16 µg/mL
CC[C@H]1OC(=O)[C@H](C)[C@@H](OC(=O)Cc2ccccc2[N+](=O)[O-])[C@H](C)[C@@H](O[C@@H]2O[C@H](C)C[C@H](N(C)C)[C@H]2O)[C@](C)(OC)C[C@@H](C)C(=O)[C@H](C)[C@@H](O)[C@]1(C)O | microbial growth | ATCC90028 | – | > 32 µg/mL
N=C(N)NCCC[C@@H]1NC(=O)[C@H](CCCNC(=N)N)NC(=O)[C@@H](CCCNC(=N)N)NC(=O)[C@@H](CCCNC(=N)N)NC(=O)[C@@H](C(c2ccccc2)c2ccccc2)NC(=O)[C@H](Cc2c[nH]c3ccccc23)NC(=O)[C@@H](C(c2ccccc2)c2ccccc2)NC1=O | fungal growth | – | – | 16 µg/mL
CC[C@H]1OC(=O)[C@H](C)[C@@H](OC(=O)Cc2ccc(N)cc2)[C@H](C)[C@@H](O[C@@H]2O[C@H](C)C[C@H](N(C)C)[C@H]2O)[C@](C)(OC)C[C@@H](C)C(=O)[C@H](C)[C@@H](O)[C@]1(C)O | microbial growth | ATCC90028 | – | > 32 µg/mL
O=c1c(O)c(-c2ccc(O)c(O)c2)oc2cc(O)c(O)c(O)c12 | microbial growth, broth dilution | SC5314 | 24 h | 16 µg/mL
CC[C@H]1OC(=O)[C@H](C)[C@@H](OC(=O)Cc2c(F)cccc2F)[C@H](C)[C@@H](O[C@@H]2O[C@H](C)C[C@H](N(C)C)[C@H]2O)[C@](C)(OC)C[C@@H](C)C(=O)[C@H](C)[C@@H](O)[C@]1(C)O | microbial growth | ATCC90028 | – | > 32 µg/mL
COc1ccc(/N=N/C(=S)N2CCN(C)CC2)cc1 | microbial growth, broth dilution | ATCC10231 | 24 h | > 50 µM
CC[C@H]1OC(=O)[C@H](C)[C@@H](OC(=O)Cc2c(F)cc([N+](=O)[O-])cc2F)[C@H](C)[C@@H](O[C@@H]2O[C@H](C)C[C@H](N(C)C)[C@H]2O)[C@](C)(OC)C[C@@H](C)C(=O)[C@H](C)[C@@H](O)[C@]1(C)O | microbial growth | ATCC90028 | – | > 32 µg/mL
O=C(O[C@@H]1Cc2c(O)cc(O)cc2O[C@@H]1c1cc(O)c(O)c(O)c1)c1cc(O)c(O)c(O)c1 | microbial growth, broth dilution | SC5314 | – | 16 µg/mL
COc1ccc(NC(=O)COc2cccc(OCC(C)C)c2)cc1 | – | – | – | 4 µg/mL
O=C(COP(=O)(O)O)C(O)C(O)C(O)COP(=O)(O)O (stereo not drawn) | microbial growth, broth dilution | SC5314 | – | > 128 µg/mL
CC[C@H]1OC(=O)[C@H](C)[C@@H](OC(=O)Cc2ccccc2Cl)[C@H](C)[C@@H](O[C@@H]2O[C@H](C)C[C@H](N(C)C)[C@H]2O)[C@](C)(OC)C[C@@H](C)C(=O)[C@H](C)[C@@H](O)[C@]1(C)O | microbial growth | ATCC90028 | – | > 32 µg/mL
NCCOCCOCCNC(=O)Cc1ccc(Nc2nc(NCc3ccc(F)cc3)nc(NCC3CCCCC3)n2)cc1 | microbial growth, broth dilution | SC5314 | 24 h | 1 µg/mL
COC1=CC(c2ccc[nH]2)=NC1=CNC12CC3CC(CC(C3)C1)C2.Cl | broth microdilution | ATCC 90028 | 24 h | 8 µg/mL
N=C(N)NCCC[C@@H]1NC(=O)[C@@H](CCCNC(=N)N)NC(=O)[C@H](CCCNC(=N)N)NC(=O)[C@@H](C(c2ccccc2)c2ccccc2)NC(=O)[C@@H](C(c2ccccc2)c2ccccc2)NC(=O)[C@@H](C(c2ccccc2)c2ccccc2)NC(=O)[C@@H](CCCNC(=N)N)NC1=O | fungal growth | – | – | 8 µg/mL
CCc1cnn2c(NCc3ccc[n+]([O-])c3)cc(N3CCCCC3CCO)nc12 (stereo not drawn) | microbial growth, broth dilution | SC5314 | 24 h | > 128 µg/mL
CC[C@H]1OC(=O)[C@H](C)[C@@H](OC(=O)Cc2ccc(Cl)cc2)[C@H](C)[C@@H](O[C@@H]2O[C@H](C)C[C@H](N(C)C)[C@H]2O)[C@](C)(OC)C[C@@H](C)C(=O)[C@H](C)[C@@H](O)[C@]1(C)O | microbial growth | ATCC90028 | – | > 32 µg/mL

For quick reference, copied from above:
SMILES | assay | system | setting | MIC
COc1ccc(/N=N/C(=S)N2CCN(C)CC2)cc1 | microbial growth, broth dilution | ATCC10231 | 24 h | > 50 µM
CC[C@H]1OC(=O)[C@H](C)[C@@H](OC(=O)Cc2c(F)cc([N+](=O)[O-])cc2F)[C@H](C)[C@@H](O[C@@H]2O[C@H](C)C[C@H](N(C)C)[C@H]2O)[C@](C)(OC)C[C@@H](C)C(=O)[C@H](C)[C@@H](O)[C@]1(C)O | microbial growth | ATCC90028 | – | > 32 µg/mL
O=C(O[C@@H]1Cc2c(O)cc(O)cc2O[C@@H]1c1cc(O)c(O)c(O)c1)c1cc(O)c(O)c(O)c1 | microbial growth, broth dilution | SC5314 | – | 16 µg/mL
